Results pooled from the literature.
Numbered parts are unrelated; each lists some results of a single study. Changes are numbered by the printed parent chain.

Series 1 — method: protein binding microarray; form: double-stranded DNA, one strand shown; matrix: in vitro; concentration: not given; relative to: not given; reading: higher = stronger binding
Target: Histone acetyltransferase KAT6A, winged helix 1, GST fusion (KAT6A, Homo sapiens, UniProt Q92794, residues 1-85)
Setting: 8-mer, flanks averaged, mean of 2 arrays, mostly near background
Target sequence (chain): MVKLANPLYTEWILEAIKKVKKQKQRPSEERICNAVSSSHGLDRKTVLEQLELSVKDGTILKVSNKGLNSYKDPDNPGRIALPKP
| Oligonucleotide | E-score |
| --- | --- |
| AAACCCAC | -0.0506 |
| GCTCGAAA | -0.156 |
| CACTTAGG | -0.242 |
| AGTCATGG | -0.164 |
| AAGTCCTA | -0.0281 |
| CCCATTTC | -0.247 |
| CCAAACGC | -0.0487 |
| GTGGCGGA | 0.11 |
| AAGGATGC | -0.0869 |
| CCATGTGA | -0.107 |
| CACTTGAG | -0.256 |
| CTCAGATA | -0.185 |
| CGAATTAC | 0.00865 |
| CCGGTAGC | 0.258 |
| TTCTCAAA | -0.238 |
| ACGGCATG | 0.344 |
| AACTCTGT | -0.0967 |
| TATTGCAA | -0.0464 |
| AAACTCGT | -0.112 |
| CCTTTGGC | -0.194 |
| GGTGGGCA | -0.165 |
| GATAGGCC | 0.0628 |
| AACGTCGA | -0.166 |
| ACTAGGAA | -0.123 |
| CCACACTC | -0.00275 |

Series 2 — method: RNA Bind-n-Seq; form: RNA; matrix: in vitro; concentration: 20 nM; setting: 6-mer, flanks averaged, single round; added: 150 mM KCl; relative to: input library; reading: higher = stronger binding
Target: TAR DNA-binding protein 43, full length, His tag (TARDBP, Homo sapiens, UniProt Q13148, residues 1-414)
| Oligonucleotide | 6-mer enrichment (R) |
| --- | --- |
| UAUUAG | 0.662 |
| GCUCUU | 0.6 |
| UAAGUA | 0.693 |
| CUUCCU | 0.56 |
| GCCUUC | 0.657 |
| UCUGUG | 0.852 |
| AGGAUU | 0.683 |
| AGGCCU | 0.804 |
| UUCAAU | 0.566 |
| UGUACG | 0.939 |
| GCUUUG | 0.811 |

Series 3 — target: CCNA2, cyclin fold, Cln2 fusion (human); method: yeast growth competition, sequencing; matrix: yeast; setting: strong parent motif; relative to: not given; reading: higher = stronger binding
Parent: ORC1 docking peptide (human); PRARKRLELGNLG; partner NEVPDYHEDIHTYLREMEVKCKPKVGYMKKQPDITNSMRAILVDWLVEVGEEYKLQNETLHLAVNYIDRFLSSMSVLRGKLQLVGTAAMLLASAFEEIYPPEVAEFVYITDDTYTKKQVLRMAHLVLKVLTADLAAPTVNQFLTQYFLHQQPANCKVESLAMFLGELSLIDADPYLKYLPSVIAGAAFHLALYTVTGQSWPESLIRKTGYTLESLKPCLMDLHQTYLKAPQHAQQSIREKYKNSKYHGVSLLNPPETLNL
| Substitution | normalised enrichment score |
| --- | --- |
| P1M | 3.94 |
| P1E | 2.83 |
| R2Y | 2.23 |
| K5F | 1.34 |
| K5N | 1.52 |
| L9N | 0.708 |
| R4P | 0.344 |
| L7E | 0.843 |
| G10R | 2.92 |
| K5V | 1.5 |
| N11I | 3.6 |
| K5L | 0.849 |
| G10N | 5.12 |
| A3C | 6.37 |
| R4Y | 1.01 |
| R6G | 1.72 |
| A3M | 3.64 |
| K5A L7A | 0.518 |
| G10V | 3.64 |
| R2F | 2.33 |
| L7R | 1.12 |
| R4C | 2.21 |
| L7W | 1.05 |
| R4K | 3.85 |
| R4D | 0.699 |

Series 4 — method: universal PBM; form: double-stranded DNA, one strand shown; matrix: in vitro; concentration: 600 nM; reading: higher = stronger binding
Target: Sal-like protein 4, full length isoform A (SALL4, Homo sapiens, UniProt Q9UJQ4, residues 1-1053)
Sequence of UniProt Q9UJQ4 (whole entry, looked up): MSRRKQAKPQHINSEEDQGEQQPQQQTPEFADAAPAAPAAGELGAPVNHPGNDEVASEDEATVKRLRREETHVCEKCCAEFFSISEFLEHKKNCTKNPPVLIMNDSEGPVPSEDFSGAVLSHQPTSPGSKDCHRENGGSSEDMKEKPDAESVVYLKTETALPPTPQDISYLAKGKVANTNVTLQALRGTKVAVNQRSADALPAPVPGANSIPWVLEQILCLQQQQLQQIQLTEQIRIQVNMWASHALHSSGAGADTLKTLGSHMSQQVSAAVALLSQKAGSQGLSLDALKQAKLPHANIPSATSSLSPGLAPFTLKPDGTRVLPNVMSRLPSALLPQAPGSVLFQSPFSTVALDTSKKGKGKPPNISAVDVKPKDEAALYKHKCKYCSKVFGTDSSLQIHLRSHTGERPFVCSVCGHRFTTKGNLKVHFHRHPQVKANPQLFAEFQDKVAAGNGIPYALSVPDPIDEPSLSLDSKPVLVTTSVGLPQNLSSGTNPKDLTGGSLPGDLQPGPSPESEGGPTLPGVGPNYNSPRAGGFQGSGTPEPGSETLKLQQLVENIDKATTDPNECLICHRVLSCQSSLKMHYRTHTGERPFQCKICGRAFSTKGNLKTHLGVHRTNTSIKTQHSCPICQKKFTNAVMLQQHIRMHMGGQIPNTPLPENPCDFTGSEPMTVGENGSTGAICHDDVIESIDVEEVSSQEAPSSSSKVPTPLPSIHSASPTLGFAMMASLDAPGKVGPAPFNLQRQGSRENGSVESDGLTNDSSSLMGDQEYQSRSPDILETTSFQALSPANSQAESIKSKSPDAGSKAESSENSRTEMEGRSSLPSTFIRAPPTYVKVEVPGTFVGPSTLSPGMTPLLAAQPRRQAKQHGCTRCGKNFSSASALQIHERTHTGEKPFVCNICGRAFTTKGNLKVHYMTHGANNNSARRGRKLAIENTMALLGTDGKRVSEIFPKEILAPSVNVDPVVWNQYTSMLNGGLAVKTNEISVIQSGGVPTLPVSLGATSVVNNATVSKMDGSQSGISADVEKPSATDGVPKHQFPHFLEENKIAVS
Setting: 8-mer, flanks averaged, mean of replicates
| Oligonucleotide | E-score |
| --- | --- |
| AAGAAAAT | 0.319 |
| AACGTGTC | -0.0627 |
| ATAGTACA | 0.0967 |
| ACCGCAGC | -0.312 |
| CCCAGCAA | -0.0254 |
| GGGAAAGA | -0.159 |
| AACATAGG | 0.117 |
| AGGTCAGG | -0.36 |
| ATTGTTCG | 0.271 |
| TATGCGCA | 0.0413 |
| AGCCGATG | -0.257 |
| GACCCTAA | -0.127 |
| GGTGTAAC | -0.0237 |
| CCCCGCTA | -0.134 |
| AGCCCGCG | -0.349 |
| CATTCAAA | 0.174 |
| GTATCGAC | 0.0368 |
| AAATATTT | 0.427 |
| AATGACTG | 0.216 |
| ATAAATTC | 0.315 |
| GAGCAACA | -0.0526 |
| CTACTCCA | 0.0273 |
| CATCACCC | -0.199 |
| CAACAGGG | -0.191 |
| AGCTCTGG | -0.119 |

Series 5 — method: RNAcompete; form: RNA; matrix: in vitro; concentration: 20 nM; setting: 7-mer, probes averaged, single round; relative to: mean of 7-mers; reading: higher = stronger binding
Target: PABPC1L2, full length, GST fusion (mouse, UniProt A0ABA7IW68)
Residues (chain): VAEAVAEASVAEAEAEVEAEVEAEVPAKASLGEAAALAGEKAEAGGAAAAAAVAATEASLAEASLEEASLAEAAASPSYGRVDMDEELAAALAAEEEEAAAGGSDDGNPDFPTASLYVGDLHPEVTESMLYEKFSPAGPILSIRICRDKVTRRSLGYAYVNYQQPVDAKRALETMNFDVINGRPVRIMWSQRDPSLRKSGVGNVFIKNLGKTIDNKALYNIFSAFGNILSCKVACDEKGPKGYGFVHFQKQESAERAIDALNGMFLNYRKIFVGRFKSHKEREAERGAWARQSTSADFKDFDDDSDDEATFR
| Oligonucleotide | 7-mer Z-score |
| --- | --- |
| GUAUAGU | -0.242 |
| CUCCAAG | -0.22 |
| AGGACAC | 0.18 |
| ACGCCGC | -0.229 |
| CGUUGUG | -0.295 |
| UAGGCGC | -0.182 |
| AUCCUUU | -0.219 |
| ACAAUCC | -0.184 |
| GAUAGUA | -0.0971 |
| UUGGGGU | -0.05 |
| AACGCCG | -0.132 |
| AGUUACU | -0.199 |
| ACUCUGC | -0.342 |
| AUACAGC | 0.22 |
| AUCUUGU | -0.434 |
| GCACGGG | 0.0533 |
| UGUAAGC | -0.161 |
| CUGUACU | -0.418 |
| GGUCACU | -0.0355 |
| GUAUUAA | -0.021 |
| UGGCUUG | -0.151 |

Series 6 — method: protein-binding microarray; form: double-stranded DNA, one strand shown; matrix: in vitro; concentration: 940 nM top; setting: 60-bp whole probe; added: salmon DNA 0.4 mg/ml; relative to: random background probes; reading: higher = stronger binding; constant ends, left off below: GCCTAGCAC … GTCTTGATTCGCTTGACGCTGCTG
Target: Interferon regulatory factor 5, full length, phosphomimetic (IRF5, Homo sapiens, UniProt Q13568-2, residues 1-514, S451D/S453D/S456D/S462D)
| Oligonucleotide | fitted relative affinity [z-score] |
| --- | --- |
| GACGGTTCGCTTTTCCTGACGTGCTAG | 0.349 |
| GACGGTTTCGACTTCCGGGACGTGCTA | 8 |
| TCAGTTTTCTTTTCCATACTGTGCTAG | 2.18 |
| GAGGGTATCGGGTTTCGGGACGTGCTA | 3.87 |
| GCCGATATCAGTATCGAGACGTGCTAG | 2.72 |
| ATTACTTTAGGTTCCCAGGTGTGCTAG | 0.277 |
| AACGAACTGGGGTTTCGAGACGTGCTA | 1.86 |
| GACAGTTTCGACTATCGGGACGTGCTA | 9.52 |
| TTCGGACTGGGTTTCGGTTAGTGCTAG | 7.08 |
| GACGGACTGCTAATCCTGACGTGCTAG | -0.702 |
| TCAAGAATGTTTTTCATACTGTGCTAG | -0.0207 |
| GACGCTTTCCTTATCCTGACGTGCTAG | 1.29 |
| TTGGGTATCGGGTTTCGGTTAGTGCTA | 7.58 |
| GACGATCCCAGTTTCGAGACGTGCTAG | 4.43 |
| TTAGGTTTCGACCTTCGGTTAGTGCTA | 8.26 |
| TCAAGTGTCAATAATGACACTGTGCTA | -0.342 |
| TTAGGACTGGTACTGCTTTAGTGCTAG | -0.452 |
| GACGATTTCGGTTTCGGGACGTGCTAG | 6.27 |
| TTAGATATCAGACTGGGTTAGTGCTAG | -0.413 |
| GACGGTATCGGTATCAGGACGTGCTAG | 8.09 |
| TTAGGTTTCGGTCTCGGTTCGTGCTAG | 16 |
| TCAAGAATGTCCTTTCTCACTGTGCTA | 0.543 |
| TTAGGTATCGACTATCGGTTAGTGCTA | 5.41 |
| GACCGTCTCGGTTTCGGGACGTGCTAG | 6.43 |
| TGTACTCTCTCCATGTGTTTGTGCTAG | 1.26 |

Repeated from above (series 1):
| Oligonucleotide | E-score |
| --- | --- |
| TATTGCAA | -0.0464 |
| AAGGATGC | -0.0869 |
| AACGTCGA | -0.166 |
| CCACACTC | -0.00275 |
| CCATGTGA | -0.107 |
| AACTCTGT | -0.0967 |
| CGAATTAC | 0.00865 |
| TTCTCAAA | -0.238 |
| GGTGGGCA | -0.165 |
| AGTCATGG | -0.164 |
| AAACTCGT | -0.112 |
| CCGGTAGC | 0.258 |
| CTCAGATA | -0.185 |
| GATAGGCC | 0.0628 |
| CCAAACGC | -0.0487 |
| CACTTAGG | -0.242 |
| GCTCGAAA | -0.156 |
| ACGGCATG | 0.344 |
| GTGGCGGA | 0.11 |
| CCCATTTC | -0.247 |
